Measurements gathered from unrelated publications.
Every numbered part comes from another study and shows a few of its results, in no order.
UniProt O94768, sequence (whole entry, looked up): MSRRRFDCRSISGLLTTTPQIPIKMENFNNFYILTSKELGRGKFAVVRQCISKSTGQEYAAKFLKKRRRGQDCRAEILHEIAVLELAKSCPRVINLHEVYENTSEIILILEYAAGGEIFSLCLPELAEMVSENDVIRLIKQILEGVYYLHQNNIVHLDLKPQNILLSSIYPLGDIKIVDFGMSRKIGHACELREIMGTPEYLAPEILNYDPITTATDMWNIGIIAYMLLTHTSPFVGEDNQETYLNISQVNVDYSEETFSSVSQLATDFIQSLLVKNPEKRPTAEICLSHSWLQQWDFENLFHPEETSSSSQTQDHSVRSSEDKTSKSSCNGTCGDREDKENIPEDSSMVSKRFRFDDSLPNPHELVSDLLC
UniProt Q14012, sequence (whole entry, looked up): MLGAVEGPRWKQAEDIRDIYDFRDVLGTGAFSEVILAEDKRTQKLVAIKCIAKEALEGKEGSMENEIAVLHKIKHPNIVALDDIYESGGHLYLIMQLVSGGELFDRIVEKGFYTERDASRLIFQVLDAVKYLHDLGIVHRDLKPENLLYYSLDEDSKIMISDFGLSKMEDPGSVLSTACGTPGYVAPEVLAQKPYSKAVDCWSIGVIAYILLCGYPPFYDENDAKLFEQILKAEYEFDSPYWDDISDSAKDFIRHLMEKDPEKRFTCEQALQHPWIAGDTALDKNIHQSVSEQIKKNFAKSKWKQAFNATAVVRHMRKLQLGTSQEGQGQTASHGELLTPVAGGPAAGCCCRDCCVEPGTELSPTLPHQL
UniProt P07947, sequence (whole entry, looked up): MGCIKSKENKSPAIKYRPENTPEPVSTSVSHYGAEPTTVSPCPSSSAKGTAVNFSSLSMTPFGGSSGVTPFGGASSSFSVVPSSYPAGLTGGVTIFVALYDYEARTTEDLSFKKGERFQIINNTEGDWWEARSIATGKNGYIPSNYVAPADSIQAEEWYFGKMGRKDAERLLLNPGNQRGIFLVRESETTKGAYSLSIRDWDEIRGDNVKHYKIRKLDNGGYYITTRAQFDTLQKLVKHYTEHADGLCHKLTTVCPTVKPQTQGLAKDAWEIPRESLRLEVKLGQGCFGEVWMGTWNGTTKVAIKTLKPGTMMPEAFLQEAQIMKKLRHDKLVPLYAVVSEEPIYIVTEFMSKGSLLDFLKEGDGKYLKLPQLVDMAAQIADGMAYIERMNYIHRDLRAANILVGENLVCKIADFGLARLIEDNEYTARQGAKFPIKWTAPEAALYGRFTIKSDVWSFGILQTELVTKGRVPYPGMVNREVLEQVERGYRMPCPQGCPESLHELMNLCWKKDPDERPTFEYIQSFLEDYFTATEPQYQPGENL
UniProt P49674, sequence (whole entry, looked up): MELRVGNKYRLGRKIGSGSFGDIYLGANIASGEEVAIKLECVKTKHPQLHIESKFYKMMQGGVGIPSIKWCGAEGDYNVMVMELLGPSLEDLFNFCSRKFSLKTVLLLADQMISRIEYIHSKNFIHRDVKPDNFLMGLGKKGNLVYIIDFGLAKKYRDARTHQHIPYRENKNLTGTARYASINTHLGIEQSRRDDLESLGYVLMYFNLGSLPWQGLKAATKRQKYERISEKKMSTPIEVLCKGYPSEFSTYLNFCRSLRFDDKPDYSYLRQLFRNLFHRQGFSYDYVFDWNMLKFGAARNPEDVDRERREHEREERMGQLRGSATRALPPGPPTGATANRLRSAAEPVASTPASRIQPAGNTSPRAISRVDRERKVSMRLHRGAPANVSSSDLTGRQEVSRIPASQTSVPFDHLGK
UniProt Q8IWQ3, sequence (whole entry, looked up): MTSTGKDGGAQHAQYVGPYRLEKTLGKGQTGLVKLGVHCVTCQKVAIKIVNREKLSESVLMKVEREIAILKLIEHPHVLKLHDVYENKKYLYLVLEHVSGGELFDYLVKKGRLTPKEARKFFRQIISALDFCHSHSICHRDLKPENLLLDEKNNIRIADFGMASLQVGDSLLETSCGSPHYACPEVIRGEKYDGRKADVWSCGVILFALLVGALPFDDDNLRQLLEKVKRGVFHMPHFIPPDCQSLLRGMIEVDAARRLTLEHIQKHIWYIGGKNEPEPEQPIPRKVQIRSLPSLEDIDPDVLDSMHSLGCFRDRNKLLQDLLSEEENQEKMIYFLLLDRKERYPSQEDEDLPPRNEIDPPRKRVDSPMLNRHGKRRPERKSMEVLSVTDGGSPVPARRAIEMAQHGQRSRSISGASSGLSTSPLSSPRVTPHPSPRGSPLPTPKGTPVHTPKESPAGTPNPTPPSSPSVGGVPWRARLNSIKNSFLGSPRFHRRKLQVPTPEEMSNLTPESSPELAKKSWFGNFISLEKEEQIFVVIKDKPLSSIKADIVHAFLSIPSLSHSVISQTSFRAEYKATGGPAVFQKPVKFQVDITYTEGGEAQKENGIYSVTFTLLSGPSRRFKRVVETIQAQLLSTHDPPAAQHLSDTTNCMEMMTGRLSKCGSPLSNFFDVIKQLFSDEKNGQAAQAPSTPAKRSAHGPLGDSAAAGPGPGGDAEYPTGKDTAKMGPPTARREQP
UniProt O15146, sequence (whole entry, looked up): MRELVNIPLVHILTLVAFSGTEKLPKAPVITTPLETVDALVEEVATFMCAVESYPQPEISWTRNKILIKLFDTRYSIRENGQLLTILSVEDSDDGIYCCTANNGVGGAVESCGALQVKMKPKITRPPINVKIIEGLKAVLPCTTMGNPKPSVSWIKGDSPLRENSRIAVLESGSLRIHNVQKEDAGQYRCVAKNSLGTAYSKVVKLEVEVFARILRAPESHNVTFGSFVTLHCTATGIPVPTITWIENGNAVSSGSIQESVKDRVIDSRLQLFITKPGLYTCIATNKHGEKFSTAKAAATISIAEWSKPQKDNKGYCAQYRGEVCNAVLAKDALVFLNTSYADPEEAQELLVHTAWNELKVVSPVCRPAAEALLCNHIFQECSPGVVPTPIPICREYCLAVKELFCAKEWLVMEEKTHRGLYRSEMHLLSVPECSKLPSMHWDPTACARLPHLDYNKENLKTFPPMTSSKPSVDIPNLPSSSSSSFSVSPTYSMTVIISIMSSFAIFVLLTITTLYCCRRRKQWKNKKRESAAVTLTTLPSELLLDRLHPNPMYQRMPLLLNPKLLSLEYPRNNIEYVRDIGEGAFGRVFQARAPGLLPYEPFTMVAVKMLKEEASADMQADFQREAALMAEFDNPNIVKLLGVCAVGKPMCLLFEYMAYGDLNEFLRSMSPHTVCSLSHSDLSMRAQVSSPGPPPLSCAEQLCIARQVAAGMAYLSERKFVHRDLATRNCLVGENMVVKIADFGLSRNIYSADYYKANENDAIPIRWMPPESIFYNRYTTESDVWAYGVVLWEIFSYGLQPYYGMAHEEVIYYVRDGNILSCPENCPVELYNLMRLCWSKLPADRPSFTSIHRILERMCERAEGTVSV
UniProt Q8N5S9, sequence (whole entry, looked up): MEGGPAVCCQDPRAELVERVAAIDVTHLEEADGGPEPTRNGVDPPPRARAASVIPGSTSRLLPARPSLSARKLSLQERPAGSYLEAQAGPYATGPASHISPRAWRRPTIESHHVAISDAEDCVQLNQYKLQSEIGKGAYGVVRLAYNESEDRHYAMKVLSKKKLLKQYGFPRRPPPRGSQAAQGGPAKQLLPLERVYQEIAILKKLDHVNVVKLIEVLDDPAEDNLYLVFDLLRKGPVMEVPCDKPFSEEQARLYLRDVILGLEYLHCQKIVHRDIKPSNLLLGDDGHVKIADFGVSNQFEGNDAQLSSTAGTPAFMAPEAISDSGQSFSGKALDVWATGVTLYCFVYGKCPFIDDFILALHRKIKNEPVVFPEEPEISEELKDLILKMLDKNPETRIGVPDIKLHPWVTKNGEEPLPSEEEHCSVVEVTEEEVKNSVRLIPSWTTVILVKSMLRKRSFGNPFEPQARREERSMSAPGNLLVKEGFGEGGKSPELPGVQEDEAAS
UniProt Q96SB4, sequence (whole entry, looked up): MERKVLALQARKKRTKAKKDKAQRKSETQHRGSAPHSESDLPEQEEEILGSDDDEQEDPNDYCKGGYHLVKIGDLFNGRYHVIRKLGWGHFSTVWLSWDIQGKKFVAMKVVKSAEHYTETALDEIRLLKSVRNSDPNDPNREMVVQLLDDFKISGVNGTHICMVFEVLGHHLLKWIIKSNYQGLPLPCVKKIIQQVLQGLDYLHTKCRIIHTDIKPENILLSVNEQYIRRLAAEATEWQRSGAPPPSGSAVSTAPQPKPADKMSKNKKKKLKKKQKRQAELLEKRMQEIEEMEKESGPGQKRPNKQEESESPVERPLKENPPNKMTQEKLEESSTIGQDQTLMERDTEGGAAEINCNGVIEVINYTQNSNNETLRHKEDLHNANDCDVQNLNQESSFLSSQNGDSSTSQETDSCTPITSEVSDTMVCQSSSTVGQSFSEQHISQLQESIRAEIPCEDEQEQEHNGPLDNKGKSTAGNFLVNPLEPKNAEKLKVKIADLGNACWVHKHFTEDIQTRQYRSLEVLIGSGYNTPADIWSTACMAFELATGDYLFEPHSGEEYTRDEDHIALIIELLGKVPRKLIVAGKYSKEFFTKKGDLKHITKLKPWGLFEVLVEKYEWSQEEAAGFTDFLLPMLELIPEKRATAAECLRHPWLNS
UniProt P49760, sequence (whole entry, looked up): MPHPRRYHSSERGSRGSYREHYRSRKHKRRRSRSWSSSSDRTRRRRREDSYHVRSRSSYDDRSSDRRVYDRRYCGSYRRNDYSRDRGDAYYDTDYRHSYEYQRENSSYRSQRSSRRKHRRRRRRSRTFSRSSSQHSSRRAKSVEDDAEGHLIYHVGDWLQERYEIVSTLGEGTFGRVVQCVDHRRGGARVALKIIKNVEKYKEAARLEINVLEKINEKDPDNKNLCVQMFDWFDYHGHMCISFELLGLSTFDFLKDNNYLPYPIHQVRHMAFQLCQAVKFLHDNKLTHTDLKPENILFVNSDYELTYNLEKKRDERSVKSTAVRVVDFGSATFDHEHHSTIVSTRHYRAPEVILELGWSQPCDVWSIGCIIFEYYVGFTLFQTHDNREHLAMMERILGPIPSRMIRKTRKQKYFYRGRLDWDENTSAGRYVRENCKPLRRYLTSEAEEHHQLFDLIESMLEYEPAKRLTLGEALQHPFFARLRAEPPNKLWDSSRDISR

Sample 1
Target: RING finger protein unkempt homolog, zinc fingers 1-6, GST-SBP tag (UNK, Homo sapiens, UniProt Q9C0B0, residues 30-357)
Method: RNA Bind-n-Seq
Form: RNA
Matrix: in vitro
Tested at: not given
Setting: RNA with constant flanks, ends assumed
Reference: input RNA pool
Reading: higher = stronger binding
Endpoint: bound/input enrichment
All sequences stand within: GGGAGUUCUACAGUCCGACGAUC … CAACAGAGGAUUGAGCAUCA
Residues (chain): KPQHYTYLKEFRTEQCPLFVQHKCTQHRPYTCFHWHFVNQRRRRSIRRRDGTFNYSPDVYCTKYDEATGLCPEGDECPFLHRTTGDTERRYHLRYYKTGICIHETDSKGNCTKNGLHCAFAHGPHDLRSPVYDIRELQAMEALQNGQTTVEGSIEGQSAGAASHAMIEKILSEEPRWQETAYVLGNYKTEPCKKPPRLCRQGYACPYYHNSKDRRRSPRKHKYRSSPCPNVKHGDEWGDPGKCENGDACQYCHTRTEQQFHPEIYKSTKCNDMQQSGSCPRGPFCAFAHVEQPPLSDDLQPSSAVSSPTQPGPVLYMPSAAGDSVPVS
Oligonucleotide = CUCGGCACCGGCACGCUUUACAUCGCGGAGAGCCGCCUGUCCUGGUUAGAUGGUUCGGGAUCCGGAUUCUCACUGGAAUACCCCACCAUUAGUUUACAUGCGGUGUCCAGGGAUCCAAAC; value = 0.477 ratio
Oligonucleotide = AAAUGACCUUUAACUUUUCUAAAAAUGUGAAGUUUUGUACUUACAUAUCAUCUAAAGUAUUACCGCAUUUUUAAGUGUACUUAGUUUGAUGCCACUUUUAGUGUUUUGUUGCUUUUGUCU; value = 1.18 ratio
Oligonucleotide = CCUGGGACUUUGGUUCAGUGCUUGAGGCUGCCAAAGUUUGCAGAGGAGGAGAAUCUUUGUACCGACUCAAUAACUCCUUGUGCUGACGGAAUUCAUUUGUUGGUAGGACUGCGGACAUGC; value = 0.0925 ratio
Oligonucleotide = UGUGAACAGAAAAGAGGCAAAGAUAAUAAAGCUAUUAUUGCAUCAAAUAUCAUGUACACCGCCGGUCAAUACCCACGUUUUUUGAGAGCUCACUGGAAAUUUCUGAAGACUGUAGUUAAC; value = 0.576 ratio
Oligonucleotide = GAAUCUUCUGACAAUGAAGGUAGGCGGACAACGAGGAGAUUGCUGUCACGCAUAGCUUCCCGCAUGUCAUCUACUUUUUUUUCACGAAGAUCUAGUCAGGAUUCCUUGAAUACAAGAUCA; value = 0.085 ratio
Oligonucleotide = UCAAGAAGCAUCGUGUCUGGCGUUGUGGGGAUGAACUUUUUGUUUUGUUUCUUCCUUUUUCCGUUCUUCAAAGAUAGGGAGGGAAGGGGGAACAUGAGCCUUUGUUGCUAUCAAUCCAAG; value = 0.123 ratio
Oligonucleotide = UGUGAAACCCAGAAAUGGACUGUGAAUGGACAGCUGAGGGUUGGAUUUUUUACCACCAAACCCGUUCCUUCAGGCUCAGAAUUAACUUUUGACUACCAGUUCCAAAGAUAUGGCAAAGAA; value = 0.198 ratio
Oligonucleotide = GGGGGCCAGGGGGCGGUGGCGGGAGGAUUGAGUGCCUAGACGGUCGCCCAGGAGCAGGUGCCGCUACUUCACAUCGACUGACUCCAAGAUGGCAAUCCAGUUGCGUUCGCUCUUCCCCUU; value = 0.44 ratio

Sample 2
Target: Hepatocyte nuclear factor 3-alpha (Foxa1, Mus musculus, UniProt P35582, residues 1-468, full length assumed)
Method: EMSA with sequencing
Form: double-stranded DNA, one strand shown
Matrix: in vitro
Tested at: 10 and 20 nM
Setting: whole designed probe, mean of two concentrations, ends assumed
Reference: negative control set to 0
Reading: higher = stronger binding
Endpoint: normalised bound fraction
All sequences stand within: GTGAGCGGTGCCCATTGATGGGGAAC … TTTCACTGGGATCGTGGGGAC
Residues (chain): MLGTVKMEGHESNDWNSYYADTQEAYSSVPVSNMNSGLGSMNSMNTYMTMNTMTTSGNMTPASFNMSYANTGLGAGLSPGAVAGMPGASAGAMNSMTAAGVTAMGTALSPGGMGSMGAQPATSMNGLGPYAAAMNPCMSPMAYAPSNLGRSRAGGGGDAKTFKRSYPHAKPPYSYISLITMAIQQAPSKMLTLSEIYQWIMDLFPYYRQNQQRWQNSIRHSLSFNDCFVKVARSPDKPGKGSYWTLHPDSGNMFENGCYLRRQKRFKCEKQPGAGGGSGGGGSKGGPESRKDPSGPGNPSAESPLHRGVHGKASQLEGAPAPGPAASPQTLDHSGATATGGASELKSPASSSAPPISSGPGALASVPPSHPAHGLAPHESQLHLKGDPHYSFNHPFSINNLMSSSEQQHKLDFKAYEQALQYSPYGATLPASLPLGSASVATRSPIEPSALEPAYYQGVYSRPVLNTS
Oligonucleotide = ATCTTCCCCCTCTTCCTTGCCCCACCAGCTCACCTTCCCGGGTTATTTGCAGATAGGAAAATAAATAAAGCCGGCATTCGTTAACCCTCTTCACGCGCATACTGCTGTTTGCTCTGCATCTAACATGGTCCTTACGCGACGCCAGGCTCCGGGAGAGCAAAGCACCGTGTCAGGCGCATGATCCGGGGTGGCC; value = 0.357 ratio
Oligonucleotide = CTCATTCCTTGCTTCCGCCAATAATCTGACTAGTAAAGAAGTCACTGCATGCCACAAATTGTCAGTGCTGACTTCCTCGAGTGACTCAGTATTTATTTACTTATTTAATATATGAGTGTCACAGATGCAAATTCCATCTTGAGAATACCAACTCCTGATGCCAACTGATTGTCAGTCATGGCTACAACAGGAG; value = 0.458 ratio
Oligonucleotide = AGAACTAGAGGGTGGTGAGTTTTGTGTGATAGAGGCGTAGAATGCAGCAGACACTGAGCATTGGAAACTTCTGGCTGCTGGCCTGTGTGATGCATGTTTACTTTGCTTTTTTTTTTTTTTTTTAATGACAAAGGAACATGCTTTTGTTTGTTTTAGGAGAAGAGGGATTGAAGGAACCAAGGGTAGCTGTGGA; value = 0.506 ratio
Oligonucleotide = TGCACCACTCAGCCCCTCCTAGTCCGCTGGAGAAAGTGGCTGAGGGGGTGGTGGGGGATAATTGCATTTCCAAAGTCCGGGCAATCAGCCAATGTAATCTGGCACCTGCGTCACTGTGTGGGCTCTCTAGGCAACAGGTAAAATACATCAAATACACACAATTTCCTGACATTCCAATGCATTTCTGCGTGAG; value = 0.0217 ratio
Oligonucleotide = ATCTTCCCCCTCTTCCTTGCCCCACCAGCTCACCTACGGGGGTTATTTGCAGATAGGAAAATAAATAAAGCCGGCATTCGTTAACGCAGTTCACGCGCATACTGCTGTTTGCTCTGCATCTAACATGGTCCTTACGCGACGCCAGGCTCCGGGAGAGCAAAGCACCGTGTCAGGCGCATGATCCGGGGTGGCC; value = 0.362 ratio

Sample 3
Compound: CC(=O)O/N=C1/C(c2c(O)[nH]c3cc(Br)ccc23)=Nc2ccccc21
Read-out: enzyme activity
Action: inhibitor
Tested at: 0.5 µM
Reference: control
Endpoint: remaining activity
target = EPHB3 (Homo sapiens, UniProt P54753); value = 94.2%
target = MUSK (Homo sapiens, UniProt O15146); value = 68.5%
target = CAMKK1 (Homo sapiens, UniProt Q8N5S9); value = 72.7%
target = IGF1R (Homo sapiens, UniProt P08069); value = 106%
target = RPS6KB2 (Homo sapiens, UniProt Q9UBS0); value = 83.7%
target = CLK2 (Homo sapiens, UniProt P49760); value = 96.8%
target = RPS6KA3 (Homo sapiens, UniProt P51812); value = 91.9%
target = CAMK1 (Homo sapiens, UniProt Q14012); value = 102%
target = YES1 (Homo sapiens, UniProt P07947); value = 46.4%
target = SIK2 (Homo sapiens, UniProt Q9H0K1); value = 54.6%
target = Cyclin-dependent kinase 2, with cyclin E (CDK2, Homo sapiens, UniProt P24941); value = 24.7%
target = ERBB2 (Homo sapiens, UniProt P04626); value = 114%
target = CSNK1D (Homo sapiens, UniProt P48730); value = 92.3%
target = SRPK1 (Homo sapiens, UniProt Q96SB4); value = 96.7%
target = BRSK2 (Homo sapiens, UniProt Q8IWQ3); value = 43.4%
target = CSNK1E (Homo sapiens, UniProt P49674); value = 55.8%

Sample 4
SMILES: CCC(=O)N[C@@H]1CC[C@H](C(=O)N(C)c2ccc(-c3nc4ccccc4o3)cc2)C1
Read-out: cell-free assay
Method: competition with immobilised ligand
Tested at: 1 µM
Endpoint: remaining binding
target = STK17B (Homo sapiens, UniProt O94768); value = 99%
target = PRPF4B (Homo sapiens, UniProt Q13523); value = 77%
target = KIT (Homo sapiens, UniProt P10721, A829P); value = 100%
target = Ribosomal protein S6 kinase alpha-5, C-terminal kinase domain (RPS6KA5, Homo sapiens, UniProt O75582); value = 97%
target = FLT3 (Homo sapiens, UniProt P36888, D835Y); value = 100%
target = Aurora kinase A (AURKA, Homo sapiens, UniProt O14965); value = 100%

Further values, each from its own experiment
Compound = CCOC(=O)[C@@H]1CSCC(=O)N[C@@H](CC)C(=O)N(C)[C@@H](C)C(=O)N[C@@H](CC(C)C)C(=O)N2CCC[C@H]2C(=O)N(CC(C)C)CC(=O)N[C@@H](CC(C)C)C(=O)N(C)[C@@H](C)C(=O)N[C@@H](CC(C)C)C(=O)N1C; matrix = hydrocarbon/water; endpoint = logD; value = 1.8

Some of these lines once more (sample 3):
target = SRPK1 (Homo sapiens, UniProt Q96SB4); value = 96.7%
target = BRSK2 (Homo sapiens, UniProt Q8IWQ3); value = 43.4%
target = CSNK1E (Homo sapiens, UniProt P49674); value = 55.8%
